Published values gathered from unrelated publications.
Numbered parts are unrelated; each lists some results of a single study.

Study 1
Target: Prothrombin, mature alpha-thrombin (F2, Homo sapiens, UniProt P00734)
Technique: aptamer microarray, sandwich
Form: DNA with 2'F-ANA
Matrix: in vitro
Tested at: 200 nM
Setting: whole 15-mer aptamer, many near background
Added: Cy3 exosite-II aptamer, 400 nM
Direction: higher = stronger binding
Sequence: GGTTGGTGTGGTTGG
Modification | mean fluorescence intensity [a.u.]
2'F-ANA at 1 3 4 5 13 14 | 42.5
2'F-ANA at 3 4 5 7 9 11 15 | 83.5
2'F-ANA at 1 4 5 7 8 13 | 53.8
2'F-ANA at 2 3 8 10 11 | 391
2'F-ANA at 1 3 5 9 10 14 15 | 46.4
2'F-ANA at 1 2 3 4 6 8 11 13 14 15 | 60.8
2'F-ANA at 1 3 4 5 7 9 13 14 | 45.8
2'F-ANA at 1 3 4 9 13 | 125
2'F-ANA at 1 3 4 5 6 9 11 14 | 49.7
2'F-ANA at 1 7 12 13 15 | 337
2'F-ANA at 2 3 5 6 7 8 10 11 14 | 78.7
2'F-ANA at 1 3 7 8 9 11 | 292
2'F-ANA at 2 3 4 5 6 7 14 | 53.5
2'F-ANA at 1 4 5 8 9 11 12 | 91.3
2'F-ANA at 3 4 6 7 9 11 14 15 | 248
2'F-ANA at 1 2 4 5 6 7 8 9 10 11 12 13 15 | 54.4
2'F-ANA at 2 5 8 9 10 13 14 | 46
2'F-ANA at 3 6 7 9 10 11 13 14 15 | 323
2'F-ANA at 1 2 4 7 13 15 | 96.1
2'F-ANA at 5 12 14 | 46.1
2'F-ANA at 1 5 6 10 12 | 46.7
2'F-ANA at 1 3 6 7 8 9 10 13 14 15 | 65.3
2'F-ANA at 1 2 3 5 6 11 12 13 14 | 48
2'F-ANA at 2 6 7 | 415
2'F-ANA at 1 3 4 8 10 11 14 15 | 49.6

Study 2
Target: Ras GTPase-activating protein-binding protein 1, RRM domain (G3BP1, Homo sapiens, UniProt Q13283)
Chain of UniProt Q13283 (whole entry, looked up): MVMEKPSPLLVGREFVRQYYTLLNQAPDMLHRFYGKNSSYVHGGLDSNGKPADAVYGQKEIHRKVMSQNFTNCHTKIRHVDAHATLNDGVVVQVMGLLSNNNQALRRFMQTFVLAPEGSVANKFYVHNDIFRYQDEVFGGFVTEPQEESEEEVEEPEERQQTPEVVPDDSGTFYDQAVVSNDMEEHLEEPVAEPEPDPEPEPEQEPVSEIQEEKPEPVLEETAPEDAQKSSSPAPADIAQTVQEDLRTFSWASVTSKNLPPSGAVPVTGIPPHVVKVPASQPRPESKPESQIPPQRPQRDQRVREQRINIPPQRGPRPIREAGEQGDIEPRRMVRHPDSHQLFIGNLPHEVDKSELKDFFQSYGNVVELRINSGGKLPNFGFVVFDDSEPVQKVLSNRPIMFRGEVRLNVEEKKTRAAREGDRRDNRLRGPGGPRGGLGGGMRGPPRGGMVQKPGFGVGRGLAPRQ
Technique: RNA Bind-n-Seq
Form: RNA
Matrix: in vitro
Tested at: 1 µM
Setting: whole 134-nt RNA, ends assumed
Added: 150 mM KCl
Reference: input library
Direction: higher = stronger binding
Sequence | log2 enrichment
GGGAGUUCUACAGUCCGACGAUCCGGUCAGACUUUGUGUUACAUAAAUUAACACUGUUCUCAGGUAAUGAGAGAUCCAAACACCAAGCGCUCCAGGGGCUUUGGGUUUGUCACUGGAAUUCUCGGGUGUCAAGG | -0.187
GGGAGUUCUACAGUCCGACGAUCGCAGGAAGUAAAAACAAAUGGAAAUGCUUCGCAUAGUGGCAGGGGUGGGGGUUGCUAAGGAAAGGGUGGGAUGGGAGUGGGUAAAGAGUUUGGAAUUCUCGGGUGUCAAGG | 1.24
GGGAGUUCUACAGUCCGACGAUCAAGUCCUGUGCUACACAUCGUAUGUACCGAAUCGGAAAAAGGUUUUUUUGGAAAGGAAAGUAUUAUGUUACGCCGUUCGGAUCUGCACUUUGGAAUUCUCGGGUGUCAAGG | -0.364
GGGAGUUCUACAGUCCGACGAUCUAACUUUAGAGGAGGAUCUGAUGAAUAUGGCAGUGGACGUGGAUUUGGGGAUGGCUAUAAUGGGUAUGGAGGAGGACCUGGAGGUGGCAAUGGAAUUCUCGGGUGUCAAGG | -0.694
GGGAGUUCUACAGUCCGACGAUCGCAGGAAGUAAAAACAAAUGGAAAUGCUUCGGAUAGUGGCAGGGGUGGGGGUGGCUAAGGAAAGGGUGGGAUGGGAGUGGGUAAAGAGUUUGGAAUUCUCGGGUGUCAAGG | 0.851
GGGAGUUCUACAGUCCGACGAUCUCAGGAAGUAAAAACAAAUGGAAAUGCUUCGGAUAGUGGCAGGGGUGGGGGUUGCUAAGGAAAGGGUGGGAUGGGAGUGGGUAAAGAGUUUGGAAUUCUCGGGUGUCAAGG | 0.87
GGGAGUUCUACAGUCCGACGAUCCCUGUGCUACACAUCGUAUGUACCGAAUCGGGGAAAAAAGGGGAAAAAAGGGAAAAAAGGAAAGUAUUAUGUUACGCCGUUCGGAUCUGCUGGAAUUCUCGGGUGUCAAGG | -0.135
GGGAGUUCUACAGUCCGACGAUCGCAGGAAGUAAAAACAAAUGGAAAUGCUUCGGAUAGUGUCAGGGGUGGGGGUUGCUAAGGAAAGGGUGGGAUGGGAGUGGGUAAAGAGUUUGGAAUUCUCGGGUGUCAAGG | 0.849
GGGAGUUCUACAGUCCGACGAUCUGGCCCUGGUGGCAUGCGGGGAGGAAGCGGUGGCCUCAUGGAUCGUGGUGGUCCCGGUGGAAUGUUCAGAGGUGGCCGUGGUGGAGACAGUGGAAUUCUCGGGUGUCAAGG | 0.77
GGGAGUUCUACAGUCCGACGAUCGUCCUGUGCUACACAUCGUAUGUACCGAAUCGGAAAAAAGGGAAAAAAGGAAAAAAGGAAAGUAUUAUGUUACGCCGUUCGGAUCUGCACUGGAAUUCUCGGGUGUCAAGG | 0.0672

Study 3
Target: Interferon regulatory factor 5, full length, phosphomimetic (IRF5, Homo sapiens, UniProt Q13568-2, residues 1-514, K96S/S451D/S453D/S456D/S462D)
Technique: protein-binding microarray
Form: double-stranded DNA, one strand shown
Matrix: in vitro
Tested at: 250 nM
Setting: 60-bp whole probe
Added: salmon DNA 0.4 mg/ml
Reference: random background probes
Direction: higher = stronger binding
Constant ends, left off below: GCCTAGCAC … GTCTTGATTCGCTTGACGCTGCTG
Sequence | log fluorescence [z-score]
TTAAGTTTCGGTTCCGGTTAGTGCTAG | 10.9
GACGGACTGGGGTATCTGGACGTGCTA | -0.189
TCAGGTCTGGGTATTTTACTGTGCTAG | -0.389
TTAGGACTGGACTATCTGTTAGTGCTA | 0.695
AAGACTTTCTTTCAAATGAAGTGCTAG | 2.91
TCAATTTTGTTTTTCATACTGTGCTAG | 1.82
TTAGGTTTCGGGACTGGCTTAGTGCTA | 6.14
TTAGGTTTCGGTTCCGATTAGTGCTAG | 10.6
TAAGGTATCGGTATCGGTTAGTGCTAG | 8.75
AACTGCATCCCAGGAGCTGGGTGCTAG | -0.723
TCATGCTTGGGTCTGGGACTGTGCTAG | -0.544
GACGGTATGGGTTTCGGGACGTGCTAG | 2.39
GACGCTATCCTTTTCCTGACGTGCTAG | 0.269
TTAGGTCTCGGTCTCGGCTAGTGCTAG | 0.45
ATTTTTTTCATTATTGTTTCGTGCTAG | 3.45
GACGGTCTCCTTAGCCTGACGTGCTAG | -0.499
TTAAAACTGAGTTTCGATTAGTGCTAG | 9.66
TCATGTTTCTAATATTCTACTGTGCTA | 1.4

Study 4
Target: Histone acetyltransferase KAT6A, winged helix 1, GST fusion (KAT6A, Homo sapiens, UniProt Q92794, residues 1-85)
Technique: protein binding microarray
Form: double-stranded DNA, one strand shown
Matrix: in vitro
Tested at: not given
Setting: 8-mer, flanks averaged, mean of 2 arrays, mostly near background
Reference: not given
Direction: higher = stronger binding
Residues (chain): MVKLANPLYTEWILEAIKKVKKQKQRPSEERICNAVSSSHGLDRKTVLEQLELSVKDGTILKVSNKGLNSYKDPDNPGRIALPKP
Sequence | E-score
GGGTCAAC | -0.0905
CTGTGGAA | -0.152
ATACAGGC | -0.148
GACACCTA | -0.0523
CTCCCAAA | -0.231
GTAAGGAC | 0.0917
AACATTAG | -0.0903
AAACGTAC | -0.116
ACATTCTA | -0.207
CGACTGCA | -0.0759
CCAACGGA | 0.0172
GCCCCCCA | -0.153
CGTAGCTC | 0.201
GGTAGACA | -0.0236
ATAAAGTG | -0.171
GTTCGGAA | -0.005
CGAGATTA | 0.122
AGTTGCTC | -0.191
CAGATACC | -0.0817
GTGATGAA | -0.227
GTTAGTGA | -0.168
CCTGCTCA | -0.151
CTGAGAGA | -0.177
AAGGGATA | -0.182

Some of these lines once more (study 1):
Modification | mean fluorescence intensity [a.u.]
2'F-ANA at 3 4 6 7 9 11 14 15 | 248
2'F-ANA at 5 12 14 | 46.1
2'F-ANA at 3 4 5 7 9 11 15 | 83.5
2'F-ANA at 1 3 4 9 13 | 125
2'F-ANA at 1 2 4 5 6 7 8 9 10 11 12 13 15 | 54.4
2'F-ANA at 1 3 4 5 13 14 | 42.5
2'F-ANA at 2 3 5 6 7 8 10 11 14 | 78.7
2'F-ANA at 1 3 5 9 10 14 15 | 46.4
2'F-ANA at 1 3 4 5 6 9 11 14 | 49.7
